Published values pooled from the literature.
Lines come from different studies, so protocols differ. ± gives the spread as reported.
Technique: steady-state kinetics
B1: nfsB (Escherichia coli, UniProt P38489); chain MDIISVALKRHSTKAFDASKKLTPEQAEQIKTLLQYSPSSTNSQPWHFIVASTEEGKARVAKSAAGNYVFNERKMLDASHVVVFCAKTAMDDVWLKLVVDQEDADGRFATPEAKAANDKGRKFFADMHRKDLHDDAEWMAKQVYLNVGNFLLGVAALGLDAVPIEGFDAAILDAEFGLKEKGYTSLVVVPVGHHSVEDFNATLPKSRLPQNITLTEV
B2: spt (Sphingomonas paucimobilis, UniProt Q93UV0); chain TEAAAQPHALPADAPDIAPERDLLSKFDGLIAERQKLLDSGVTDPFAIVMEQVKSPTEAVIRGKDTILLGTYNYMGMTFDPDVIAAGKEALEKFGSGTNGSRMLNGTFHDHMEVEQALRDFYGTTGAIVFSTGYMANLGIISTLAGKGEYVILDADSHASIYDGCQQGNAEIVRFRHNSVEDLDKRLGRLPKEPAKLVVLEGVYSMLGDIAPLKEMVAVAKKHGAMVLVDEAHSMGFFGPNGRGVYEAQGLEGQIDFVVGTFSKSVGTVGGFVVSNHPKFEAVRLACRPYIFTASLPPSVVATATTSIRKLMTAHEKRERLWSNARALHGGLKAMGFRLGTETCDSAIVAVMLEDQEQAAMMWQALLDGGLYVNMARPPATPAGTFLLRCSICAEHTPAQIQTVLGMFQAAGRAVGVIG
B3: efeB (Bacillus subtilis, UniProt P39597); chain IGASGLGGLAPLVQTAAKPSKKDEKEEEQIVPFYGKHQAGITTAHQTYVYFAALDVTAKDKSDIITLFRNWTSLTQMLTSGKKMSAEQRNQYLPPQDTGESADLSPSNLTVTFGFGPGFFEKDGKDRFGLKSKKPKHLAALPAMPNDNLDEKQGGGDICIQVCADDEQVAFHALRNLLNQAVGTCEVRFVNKGFLSGGKNGETPRNLFGFKDGTGNQSTKDDTLMNSIVWIQSGEPDWMTGGTYMAFRKIKMFLEVWDRSSLKDQEDTFGRRKSSGAPFGQKKETDPVKLNQIPSNSHVSLAKSTGKQILRRAFSYTEGLDPKTGYMDAGLLFISFQKNPDNQFIPMLKALSAKDALNEYTQTIGSALYACPGGCKKGEYIAQRLLES
B4: enzyme H459A (Methanosarcina mazei, UniProt Q8PVB1); chain MSEQRSVPLREHLLALKPCRHGGLIQETSETYGIPENEILDFSANFNPLGSPFDYPENGLNFEDIIKKSCGKLLEYPDNRYVEFREAAARFVGLGVTPQSIVPGNGSTEIVRLVVESVIEKGDKVLLPWPTFGEYEMQCRITGAEPVCPSQEEVNTLPDEVLEEAKILFICNPNNPTGKLRTREELKVLAERCREHKTLLYVDEAFIELSDPSQSVADLPAENNYVFVMRSLTKDFAIPGIRMGFGIAPPAMADILNTARLSWNLGAIANNTGIALLNIEGGIDSPYLKKAREMILKEGETLKAKIDRIRGFEAGEVNVNFILVDVSKFMLNSSELTARLAARGVLVRDCVSFHGLGKNYIRVAVRTEKENDRLIAAIGDVITEWGREQAKNELQHVIEKASEEGIGGRKTCEYYPCHFEGQNCTFCFCPFYPCENEKTGGKWIQSSRGGRVWSCVDCALVHKKEIAQKILDCLMHEGDTDELVKVAWKEVMEPIL
B5: proA (Escherichia coli, UniProt P07004); chain MLEQMGIAAKQASYKLAQLSSREKNRVLEKIADELEAQSEIILNANAQDVADARANGLSEAMLDRLALTPARLKGIADDVRQVCNLADPVGQVIDGGVLDSGLRLERRRVPLGVIGVIYEARPNVTVDVASLCLKTGNAVILRGGKETCRTNAATVAVIQDALKSCGLPAGAVQAIDNPDRALVSEMLRMDKYIDMLIPRGGAGLHKLCREQSTIPVITGGIGVCHIYVDESVEIAEALKVIVNAKTQRPSTCNTVETLLVNKNIADSFLPALSKQMAESGVTLHADAAALAQLQAGPAKVVAVKAEEYDDEFLSLDLNVKIVSDLDDAIAHIREHGTQHSDAILTRDMRNAQRFVNEVDSSAVYVNASTRFTDGGQFGLGAEVAVSTQKLHARGPMGLEALTTYKWIGIGDYTIRA
B6: CYP4F3 A27G/C46R/I34V/M14V/R49Q/W12G (Homo sapiens, UniProt Q08477); chain MALLLAVFLLGPVAASPWLLLLLVGGSWLLARVLAWTYTFYDNCRRLQCFPQPPKRNWFLGHLGLIHSSEEGLLYTQSLACTFGDMCCWWVGPWHAIVRIFHPTYIKPVLFAPAAIVPKDKVFYSFLKPWLGDGLLLSAGEKWSRHRRMLTPAFHFNILKPYMKIFNESVNIMHAKWQLLASEGSARLDMFEHISLMTLDSLQKCVFSFDSHCQEKPSEYIAAILELSALVTKRHQQILLYIDFLYYLTPDGQRFRRACRLVHDFTDAVIQERRRTLPSQGVDDFLQAKAKSKTLDFIDVLLLSKDEDGKKLSDEDIRAEADTFMFEGHDTTASGLSWVLYHLAKHPEYQERCRQEVQELLKDREPKEIEWDDLAQLPFLTMCIKESLRLHPPVPAVSRCCTQDIVLPDGRVIPKGIICLISVFGTHHNPAVWPDPEVYDPFRFDPKNIKERSPLAFIPFSAGPRNCIGQAFAMAEMKVVLGLTLLRFRVLPDHTEPRRKPELVLRAEGGLWLRVEPLS
B7: enzyme S252E (Schizosaccharomyces pombe, UniProt P78804); chain MSTPYEPEFQQAYKEIVGSIESSKLFEVHPELKRVLPIISIPERVLEFRVTWEDDKGNCRVNTGYRVQFNSALGPYKGGLRFHPSVNLSILKFLGFEQIFKNALTGLPMGGGKGGSDFDPKGKSDNEIRRFSQAFMRQLFRYIGPQTDVPAGDIGVTGFVVMHMFGEYKRLRNEYSGVVTGKHMLTGGSNIRPEATGYGVVYYVKHMIEHRTKGAETLKGKRVAISGSGNVAQYAALKCIQEGAIVKSISDEKGVLIAKTAEGLVPEEIHEIMALKEKRASIADSASLCKKHHYIAGARPWTNVGEIDIALPCATQNEVSGEEAAALIKQGCRYVAEGSNMGSSAEAVEVFEKSRASGEGCWLAPGKAANAGGVAVSGLEMAQNAQFSTWTHAEVDAKLAGIMQNIFEQSTDVASKYCDSGSNNIPSLVDGANIAGFLKVATAMQAVGDWW
B8: Por W677G (Rattus norvegicus, UniProt P00388); chain GDSHEDTSATMPEAVAEEVSLFSTTDMVLFSLIVGVLTYWFIFRKKKEEIPEFSKIQTTAPPVKESSFVEKMKKTGRNIIVFYGSQTGTAEEFANRLSKDAHRYGMRGMSADPEEYDLADLSSLPEIDKSLVVFCMATYGEGDPTDNAQDFYDWLQETDVDLTGVKFAVFGLGNKTYEHFNAMGKYVDQRLEQLGAQRIFELGLGDDDGNLEEDFITWREQFWPAVCEFFGVEATGEESSIRQYELVVHEDMDVAKVYTGEMGRLKSYENQKPPFDAKNPFLAAVTANRKLNQGTERHLMHLELDISDSKIRYESGDHVAVYPANDSALVNQIGEILGADLDVIMSLNNLDEESNKKHPFPCPTTYRTALTYYLDITNPPRTNVLYELAQYASEPSEQEHLHKMASSSGEGKELYLSWVVEARRHILAILQDYPSLRPPIDHLCELLPRLQARYYSIASSSKVHPNSVHICAVAVEYEAKSGRVNKGVATSWLRAKEPAGENGGRALVPMFVRKSQFRLPFKSTTPVIMVGPGTGIAPFMGFIQERAWLREQGKEVGETLLYYGCRRSDEDYLYREELARFHKDGALTQLNVAFSREQAHKVYVQHLLKRDREHLWKLIHEGGAHIYVCGDARNMAKDVQNTFYDIVAEFGPMEHTQAVDYVKKLMTKGRYSLDVGS
B9: enzyme (Kluyveromyces lactis, UniProt Q6CSZ6); chain MSSLDINEQRALIKSAHRYISEKLEDHFSSEFLPKALVICGSGLSGISTKIADEPKPLILSYSTIPGFKVSTVPGHSGELIFGYMNGAPVVLMNGRLHSYEGHSLAETVHPIRALHLLGSINVLIVTNAAGGINASFKAGDLMCVYDHINFPGLCGFHPLRGANFDEFGPRFLATSDAYDLELRKLLFSKKKELNIERKIHEGTYSYVHGPTFESRAESRFLRLAGTDAVGMSTVPEVVTARHCGWRVLALSLITNECVVDPPASAHDENPVPIQEGKATHEEVLENSAKASKDVQELIFSVVAEI
B10: ackA (Escherichia coli, UniProt P0A6A3); chain MSSKLVLVLNCGSSSLKFAIIDAVNGEEYLSGLAECFHLPEARIKWKMDGNKQEAALGAGAAHSEALNFIVNTILAQKPELSAQLTAIGHRIVHGGEKYTSSVVIDESVIQGIKDAASFAPLHNPAHLIGIEEALKSFPQLKDKNVAVFDTAFHQTMPEESYLYALPYNLYKEHGIRRYGAHGTSHFYVTQEAAKMLNKPVEELNIITCHLGNGGSVSAIRNGKCVDTSMGLTPLEGLVMGTRSGDIDPAIIFHLHDTLGMSVDAINKLLTKESGLLGLTEVTSDCRYVEDNYATKEDAKRAMDVYCHRLAKYIGAYTALMDGRLDAVVFTGGIGENAAMVRELSLGKLGVLGFEVDHERNLAARFGKSGFINKEGTRPAVVIPTNEELVIAQDASRLTA
B11: enzyme (Equus caballus, UniProt P00327); chain STAGKVIKCKAAVLWEEKKPFSIEEVEVAPPKAHEVRIKMVATGICRSDDHVVSGTLVTPLPVIAGHEAAGIVESIGEGVTTVRPGDKVIPLFTPQCGKCRVCKHPEGNFCLKNDLSMPRGTMQDGTSRFTCRGKPIHHFLGTSTFSQYTVVDEISVAKIDAASPLEKVCLIGCGFSTGYGSAVKVAKVTQGSTCAVFGLGGVGLSVIMGCKAAGAARIIGVDINKDKFAKAKEVGATECVNPQDYKKPIQEVLTEMSNGGVDFSFEVIGRLDTMVTALSCCQEAYGVSVIVGVPPDSQNLSMNPMLLLSGRTWKGAIFGGFKSKDSVPKLVADFMAKKFALDPLITHVLPFEKINEGFDLLRSGESIRTILTF
B12: ART1 (Homo sapiens, UniProt P52961); chain QSHPITRRDLFSQEIQLDMALASFDDQYAGCAAAMTAALPDLNHTEFQANQVYADSWTLASSQWQERQARWPEWSLSPTRPSPPPLGFRDEHGVALLAYTANSPLHKEFNAAVREAGRSRAHYLHHFSFKTLHFLLTEALQLLGSGQRPPRCHQVFRGVHGLRFRPAGPRATVRLGGFASASLKHVAAQQFGEDTFFGIWTCLGAPIKGYSFFPGEEEVLIPPFETFQVINASRLAQGPARIYLRALGKHSTYNCEYIKDKKCKSGPCHLDNS
UniProt P05181, sequence (whole entry, looked up): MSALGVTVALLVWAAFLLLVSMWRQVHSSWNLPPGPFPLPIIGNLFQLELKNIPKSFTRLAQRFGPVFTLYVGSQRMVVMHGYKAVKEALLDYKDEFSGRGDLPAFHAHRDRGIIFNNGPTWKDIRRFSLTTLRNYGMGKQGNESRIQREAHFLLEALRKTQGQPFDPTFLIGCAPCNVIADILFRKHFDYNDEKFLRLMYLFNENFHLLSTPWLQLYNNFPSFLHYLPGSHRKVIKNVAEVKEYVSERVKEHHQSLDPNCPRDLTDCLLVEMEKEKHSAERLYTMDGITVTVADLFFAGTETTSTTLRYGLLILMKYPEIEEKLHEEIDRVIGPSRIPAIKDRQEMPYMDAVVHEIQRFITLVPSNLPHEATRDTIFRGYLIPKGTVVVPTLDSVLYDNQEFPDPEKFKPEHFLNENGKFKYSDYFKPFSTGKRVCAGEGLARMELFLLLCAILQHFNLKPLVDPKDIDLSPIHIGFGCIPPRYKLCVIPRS
UniProt Q944I4, sequence (whole entry, looked up): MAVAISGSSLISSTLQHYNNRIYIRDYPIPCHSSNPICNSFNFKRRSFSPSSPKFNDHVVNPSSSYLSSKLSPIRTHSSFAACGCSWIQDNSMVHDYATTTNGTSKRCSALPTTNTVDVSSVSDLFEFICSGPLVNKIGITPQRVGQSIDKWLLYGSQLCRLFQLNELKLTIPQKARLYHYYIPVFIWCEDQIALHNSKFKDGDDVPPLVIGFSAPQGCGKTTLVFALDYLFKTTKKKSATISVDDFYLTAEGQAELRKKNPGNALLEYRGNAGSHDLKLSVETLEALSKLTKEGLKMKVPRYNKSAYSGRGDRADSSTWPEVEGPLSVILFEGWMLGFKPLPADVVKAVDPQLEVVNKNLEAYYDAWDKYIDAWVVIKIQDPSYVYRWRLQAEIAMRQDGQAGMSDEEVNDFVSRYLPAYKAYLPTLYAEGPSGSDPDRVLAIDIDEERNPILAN

`B1 (nfsB)` gave a kcat of 41 ± 3 s⁻¹ (NC(=O)N/N=C/c1ccc([N+](=O)[O-])o1; pH 7, 37 °C, with: NADPH 110 µM).
For `enzyme (UniProt A0A4R3LQ44)`, the kcat was 93 ± 3 s⁻¹ (O=C(O)[C@H](O)[C@@H](O)[C@@H](O)[C@H](O)CO; pH 7.5, 50 °C).
`B2 (spt)` gave a kcat of 0.76 ± 0.03 s⁻¹ (CCCCCCCCCCCCCC(=O)SCCNC(=O)CCNC(=O)[C@H](O)C(C)(C)COP(=O)(O)OP(=O)(O)OC[C@H]1O[C@@H](n2cnc3c(N)ncnc32)[C@H](O)[C@@H]1OP(=O)(O)O; with: PLP).
`enzyme (Homo sapiens, UniProt Q08623)` has a kcat of 1.65 s⁻¹ (O=c1[nH]cc([C@@H]2O[C@H](COP(=O)(O)O)[C@@H](O)[C@H]2O)c(=O)[nH]1; pH 7, 25 °C).
With `B3 (efeB)` the kcat was 12.4 ± 0.7 s⁻¹ (CCn1c(=NN=c2sc3cc(S(=O)(=O)O)ccc3n2CC)sc2cc(S(=O)(=O)O)ccc21; pH 6, 25 °C, apparent).
With `enzyme (Arabidopsis thaliana, UniProt Q944I4)` the kcat was 50 ± 1.06 s⁻¹ (O=C(O)[C@H](O)CO; pH 7.8, 30 °C).
The kcat of `B4 (enzyme H459A)` is reported as 0.027 ± 0.001 s⁻¹ (Nc1ncnc2c1ncn2[C@@H]1O[C@H](COP(=O)(O)OP(=O)(O)OP(=O)(O)O)[C@@H](O)[C@H]1O; pH 8.5, 25 °C, apparent, anoxic, with: L-Thr 10 mM).
The kcat of `B5 (proA)` is reported as 15 ± 1 s⁻¹ (N[C@@H](CCC=O)C(=O)O; pH 7.6, apparent, with: 1 mM NADP+).
With `B6` the kcat was 0.00783 s⁻¹ (CCCCC/C=C\C[C@@H](O)/C=C/C=C/C=C\[C@@H](O)CCCC(=O)O; pH 7.4).
`B7 (enzyme S252E)` gave a kcat of 0.17 ± 0.01 s⁻¹ (NC(=O)c1ccc[n+]([C@@H]2O[C@H](COP(=O)(O)OP(=O)(O)OC[C@H]3O[C@@H](n4cnc5c(N)ncnc54)[C@H](O)[C@@H]3O)[C@@H](O)[C@H]2O)c1; pH 7, 30 °C, apparent).
With `B8 (Por W677G)` the kcat was 40.2 ± 3.55 s⁻¹ (NC(=O)C1=CN([C@@H]2O[C@H](COP(=O)(O)OP(=O)(O)OC[C@H]3O[C@@H](n4cnc5c(N)ncnc54)[C@H](O)[C@@H]3O)[C@@H](O)[C@H]2O)C=CC1; with: cytochrome c).
The kcat of `B9 (enzyme)` is reported as 31 ± 0.1 s⁻¹ (OC[C@H]1O[C@@H](n2cnc3c(O)ncnc32)[C@H](O)[C@@H]1O).
With `CYP2E1 (Homo sapiens, UniProt P05181)` the kcat was 0.22 ± 0.0267 s⁻¹ (O=[N+]([O-])c1ccc(O)cc1; pH 7.4, 37 °C).
`B10 (ackA)` gave a kcat of 420 ± 190 s⁻¹ (Nc1ncnc2c1ncn2[C@@H]1O[C@H](COP(=O)(O)OP(=O)(O)OP(=O)(O)O)[C@@H](O)[C@H]1O; pH 7.6, 25 °C, with: acetate).
`B11 (enzyme)` has a kcat of 0.0005 ± 0.0001 s⁻¹ (NC(=O)c1ccc[n+]([C@@H]2O[C@H](COP(=O)(O)OP(=O)(O)OC[C@H]3O[C@@H](n4cnc5c(N)ncnc54)[C@H](OP(=O)(O)O)[C@@H]3O)[C@@H](O)[C@H]2O)c1; pH 7, 30 °C, cofactor varied).
`B12 (ART1)` has a kcat of 9 ± 1.8 s⁻¹ (COC(=O)[C@H](CCCNC(=N)N)NC(C)=O; pH 7.5, 25 °C, HEPES 50 mM, with: saturating NAD+).

Some of these lines once more:
`B1 (nfsB)` gave a kcat of 41 ± 3 s⁻¹ (NC(=O)N/N=C/c1ccc([N+](=O)[O-])o1; pH 7, 37 °C, with: NADPH 110 µM).
With `enzyme (Arabidopsis thaliana, UniProt Q944I4)` the kcat was 50 ± 1.06 s⁻¹ (O=C(O)[C@H](O)CO; pH 7.8, 30 °C).
